Results collected from several papers.
Protocols differ between the studies behind these lines.

CCOC(=O)c1nc2n(n1)C(C)(O)C([N+](=O)[O-])=NN2 (stereo not shown)  IC50 (unidentified influenza virus; viral replication; MDCK, H1N1; 48 h): > 370 µM
O=C(O)CCCC1C2CCCN3CCCC(CN1Cc1ccc(Cl)c(Cl)c1)C23 (stereo not shown)  IC50 (Vesicular stomatitis virus; viral entry; VSV G pseudotyped HIV): > 200 µM
CN1CCN(C(=O)N[C@@H](Cc2ccccc2)C(=O)N[C@H](/C=C/S(=O)(=O)c2ccccc2)CCc2ccccc2)CC1  IC50 (Vesicular stomatitis virus; viral entry; HEK-293T; pseudovirus): > 0.1 µM
CC(=O)OC[C@H]1O[C@@H](NC(=O)NC(=O)[C@@H](C)Cc2ccc(C(C)C)cc2)[C@H](OC(C)=O)[C@@H](OC(C)=O)[C@@H]1OC(C)=O  IC50 (human parainfluenza virus 3; viral cytopathicity; Vero): 45 µM
CCC1(O)C([N+](=O)[O-])=NNc2nc(C(F)(F)F)nn21 (stereo not shown)  IC50 (unidentified influenza virus; viral replication; MDCK, H1N1; 48 h): > 357 µM
COC(=O)CCCC1C2CCCN3CCCC(CN1C(=O)c1ccc(Cl)cc1)C23 (stereo not shown)  IC50 (Vesicular stomatitis virus; viral entry; VSV G pseudotyped HIV): > 200 µM
CCC1(O)C([N+](=O)[O-])=NNc2nc(C)nn21 (stereo not shown)  IC50 (unidentified influenza virus; viral replication; MDCK, H1N1; 48 h): 233 µM
O=C(CCC1CCN(c2cc(NC3CC3)ncn2)CC1)NCc1cccnc1  IC50 (Cedar virus; viral replication, inhibitor; Vero C1008; 48 h): 2.37 µM
O=C(O)CCCC1C2CCCN3CCCC(CN1C(=O)c1ccc(Cl)cc1)C23 (stereo not shown)  IC50 (Vesicular stomatitis virus; viral entry; VSV G pseudotyped HIV): > 200 µM
Cc1nc2n(n1)C(C)(O)C([N+](=O)[O-])=NN2 (stereo not shown)  IC50 (unidentified influenza virus; viral replication; MDCK, H1N1; 48 h): 472 µM
O=C(CCc1nc(-c2ccc(N3CCCC3)cc2)no1)NCCCN1CCOCC1  IC50 (Cedar virus; viral replication, inhibitor; Vero C1008; 48 h): 1.58 µM
COC(=O)CCCC1C2CCCN3CCCC(CN1Cc1ccc(Cl)c(Cl)c1)C23 (stereo not shown)  IC50 (Vesicular stomatitis virus; viral entry; VSV G pseudotyped HIV): > 200 µM
C=CC1CN(C(=O)NCC=CCSCC=CCNC(=O)N2CC(C=C)OC2=S)C(=S)O1 (stereo not shown)  IC50 (unidentified influenza virus; viral replication; H3N2): 0.6 µM

Some of these lines once more:
CN1CCN(C(=O)N[C@@H](Cc2ccccc2)C(=O)N[C@H](/C=C/S(=O)(=O)c2ccccc2)CCc2ccccc2)CC1  IC50 (Vesicular stomatitis virus; viral entry; HEK-293T; pseudovirus): > 0.1 µM
O=C(CCc1nc(-c2ccc(N3CCCC3)cc2)no1)NCCCN1CCOCC1  IC50 (Cedar virus; viral replication, inhibitor; Vero C1008; 48 h): 1.58 µM
